Measurements of several laboratories.
Each numbered part is a random draw from the data of one study; scales do not carry over between parts. Substitutions count along the parent as printed.
Chain of UniProt P11362 (whole entry, looked up): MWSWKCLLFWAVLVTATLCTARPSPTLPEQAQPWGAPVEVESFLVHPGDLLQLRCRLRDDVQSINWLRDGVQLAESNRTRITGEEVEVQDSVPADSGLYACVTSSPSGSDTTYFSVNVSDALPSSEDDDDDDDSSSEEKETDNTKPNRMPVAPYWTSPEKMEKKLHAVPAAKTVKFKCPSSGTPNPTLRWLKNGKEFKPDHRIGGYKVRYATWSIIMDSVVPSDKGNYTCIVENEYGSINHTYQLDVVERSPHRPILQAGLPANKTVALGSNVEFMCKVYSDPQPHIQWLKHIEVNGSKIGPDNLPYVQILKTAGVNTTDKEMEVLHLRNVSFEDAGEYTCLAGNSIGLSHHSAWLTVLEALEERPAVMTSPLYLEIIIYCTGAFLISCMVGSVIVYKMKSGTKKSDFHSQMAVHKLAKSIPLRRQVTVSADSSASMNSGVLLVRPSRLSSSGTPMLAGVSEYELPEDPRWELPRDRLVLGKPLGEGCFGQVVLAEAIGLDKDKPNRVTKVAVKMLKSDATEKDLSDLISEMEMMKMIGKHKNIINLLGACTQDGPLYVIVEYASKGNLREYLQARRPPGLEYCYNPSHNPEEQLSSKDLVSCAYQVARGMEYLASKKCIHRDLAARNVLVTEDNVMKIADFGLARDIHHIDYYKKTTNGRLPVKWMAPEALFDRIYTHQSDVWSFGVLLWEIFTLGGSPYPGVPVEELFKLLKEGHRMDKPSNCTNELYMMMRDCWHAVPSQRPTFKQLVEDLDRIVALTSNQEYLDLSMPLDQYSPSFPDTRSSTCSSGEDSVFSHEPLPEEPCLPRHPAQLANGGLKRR
Chain of UniProt Q04912 (whole entry, looked up): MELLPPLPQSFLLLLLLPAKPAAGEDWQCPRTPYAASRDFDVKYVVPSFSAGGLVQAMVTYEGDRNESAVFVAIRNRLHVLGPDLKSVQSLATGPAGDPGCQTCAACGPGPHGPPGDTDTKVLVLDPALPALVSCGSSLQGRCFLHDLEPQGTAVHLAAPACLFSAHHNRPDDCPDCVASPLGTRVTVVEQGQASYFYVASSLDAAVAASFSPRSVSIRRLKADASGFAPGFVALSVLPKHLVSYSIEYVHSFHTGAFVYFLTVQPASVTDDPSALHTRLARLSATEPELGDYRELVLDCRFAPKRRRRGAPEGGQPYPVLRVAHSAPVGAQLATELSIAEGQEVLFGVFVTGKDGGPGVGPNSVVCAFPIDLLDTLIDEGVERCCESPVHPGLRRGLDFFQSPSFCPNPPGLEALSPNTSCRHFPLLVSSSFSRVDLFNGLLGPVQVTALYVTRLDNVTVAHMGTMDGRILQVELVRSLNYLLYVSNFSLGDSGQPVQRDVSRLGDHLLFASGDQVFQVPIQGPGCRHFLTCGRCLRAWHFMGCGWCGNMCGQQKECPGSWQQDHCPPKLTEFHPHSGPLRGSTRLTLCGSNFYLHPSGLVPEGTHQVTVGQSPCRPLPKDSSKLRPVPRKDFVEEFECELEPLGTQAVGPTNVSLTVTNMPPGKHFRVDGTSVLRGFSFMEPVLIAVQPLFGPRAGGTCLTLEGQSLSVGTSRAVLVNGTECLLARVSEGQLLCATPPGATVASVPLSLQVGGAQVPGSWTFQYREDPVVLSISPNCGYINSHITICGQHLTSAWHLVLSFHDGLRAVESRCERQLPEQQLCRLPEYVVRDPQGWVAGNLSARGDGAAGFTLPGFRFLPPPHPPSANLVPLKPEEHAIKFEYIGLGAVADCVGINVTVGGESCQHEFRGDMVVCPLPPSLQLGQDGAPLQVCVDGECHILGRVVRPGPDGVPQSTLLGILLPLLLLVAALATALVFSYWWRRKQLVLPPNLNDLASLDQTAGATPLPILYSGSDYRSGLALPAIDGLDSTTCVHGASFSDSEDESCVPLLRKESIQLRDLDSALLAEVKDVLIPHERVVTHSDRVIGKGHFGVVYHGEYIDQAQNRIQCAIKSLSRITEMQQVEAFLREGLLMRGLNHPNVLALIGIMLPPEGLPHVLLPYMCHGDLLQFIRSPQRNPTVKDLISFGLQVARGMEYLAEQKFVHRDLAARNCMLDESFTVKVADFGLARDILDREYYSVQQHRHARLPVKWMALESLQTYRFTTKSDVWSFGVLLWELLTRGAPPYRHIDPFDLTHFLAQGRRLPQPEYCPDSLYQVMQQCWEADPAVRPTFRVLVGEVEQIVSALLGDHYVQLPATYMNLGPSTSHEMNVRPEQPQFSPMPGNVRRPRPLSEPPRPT
Chain of UniProt P49137 (whole entry, looked up): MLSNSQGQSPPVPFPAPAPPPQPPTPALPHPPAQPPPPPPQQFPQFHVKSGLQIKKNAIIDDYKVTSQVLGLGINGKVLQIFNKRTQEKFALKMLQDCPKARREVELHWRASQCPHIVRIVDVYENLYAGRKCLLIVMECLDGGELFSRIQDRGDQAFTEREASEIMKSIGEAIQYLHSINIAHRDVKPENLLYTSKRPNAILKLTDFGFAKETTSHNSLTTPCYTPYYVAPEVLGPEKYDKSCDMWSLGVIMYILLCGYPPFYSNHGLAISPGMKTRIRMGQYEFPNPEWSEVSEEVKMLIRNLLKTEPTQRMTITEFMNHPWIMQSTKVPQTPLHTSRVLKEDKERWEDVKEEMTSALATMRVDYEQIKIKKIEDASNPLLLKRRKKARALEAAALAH
Chain of UniProt P17106 (whole entry, looked up): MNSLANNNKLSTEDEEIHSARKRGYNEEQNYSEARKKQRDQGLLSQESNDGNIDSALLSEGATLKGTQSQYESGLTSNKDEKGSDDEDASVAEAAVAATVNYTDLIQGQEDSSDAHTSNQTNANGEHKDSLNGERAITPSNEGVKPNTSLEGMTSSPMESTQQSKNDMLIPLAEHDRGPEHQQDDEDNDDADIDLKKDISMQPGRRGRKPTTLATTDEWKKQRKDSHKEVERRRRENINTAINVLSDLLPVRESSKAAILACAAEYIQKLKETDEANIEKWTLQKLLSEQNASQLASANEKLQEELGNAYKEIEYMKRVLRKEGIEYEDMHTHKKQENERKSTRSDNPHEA
Chain of UniProt Q9Y6M4 (whole entry, looked up): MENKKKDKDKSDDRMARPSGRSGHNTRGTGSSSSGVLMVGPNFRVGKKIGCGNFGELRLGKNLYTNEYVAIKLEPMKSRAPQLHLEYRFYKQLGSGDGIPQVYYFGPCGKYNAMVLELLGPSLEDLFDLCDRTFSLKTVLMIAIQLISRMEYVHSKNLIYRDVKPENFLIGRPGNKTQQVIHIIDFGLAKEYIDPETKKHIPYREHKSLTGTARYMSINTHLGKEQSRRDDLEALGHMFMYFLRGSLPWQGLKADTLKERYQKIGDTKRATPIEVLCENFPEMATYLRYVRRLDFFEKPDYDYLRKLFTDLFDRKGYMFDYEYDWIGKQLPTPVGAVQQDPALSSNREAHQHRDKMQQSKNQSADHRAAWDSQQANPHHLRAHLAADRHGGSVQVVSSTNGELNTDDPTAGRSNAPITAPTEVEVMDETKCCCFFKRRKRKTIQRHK
Chain of UniProt Q9UQM7 (whole entry, looked up): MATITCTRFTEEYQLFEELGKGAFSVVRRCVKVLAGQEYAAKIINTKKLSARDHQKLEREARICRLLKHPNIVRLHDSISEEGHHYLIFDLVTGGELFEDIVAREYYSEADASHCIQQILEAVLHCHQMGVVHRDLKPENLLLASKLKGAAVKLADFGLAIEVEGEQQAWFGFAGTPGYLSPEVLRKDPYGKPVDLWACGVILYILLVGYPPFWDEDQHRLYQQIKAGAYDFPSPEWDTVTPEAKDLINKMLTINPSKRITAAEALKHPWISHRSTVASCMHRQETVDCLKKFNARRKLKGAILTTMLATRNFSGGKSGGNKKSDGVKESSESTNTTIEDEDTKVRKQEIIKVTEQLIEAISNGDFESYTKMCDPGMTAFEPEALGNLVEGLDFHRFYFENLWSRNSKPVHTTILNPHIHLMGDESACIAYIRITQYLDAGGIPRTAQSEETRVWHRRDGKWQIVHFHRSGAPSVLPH
Chain of UniProt P36896 (whole entry, looked up): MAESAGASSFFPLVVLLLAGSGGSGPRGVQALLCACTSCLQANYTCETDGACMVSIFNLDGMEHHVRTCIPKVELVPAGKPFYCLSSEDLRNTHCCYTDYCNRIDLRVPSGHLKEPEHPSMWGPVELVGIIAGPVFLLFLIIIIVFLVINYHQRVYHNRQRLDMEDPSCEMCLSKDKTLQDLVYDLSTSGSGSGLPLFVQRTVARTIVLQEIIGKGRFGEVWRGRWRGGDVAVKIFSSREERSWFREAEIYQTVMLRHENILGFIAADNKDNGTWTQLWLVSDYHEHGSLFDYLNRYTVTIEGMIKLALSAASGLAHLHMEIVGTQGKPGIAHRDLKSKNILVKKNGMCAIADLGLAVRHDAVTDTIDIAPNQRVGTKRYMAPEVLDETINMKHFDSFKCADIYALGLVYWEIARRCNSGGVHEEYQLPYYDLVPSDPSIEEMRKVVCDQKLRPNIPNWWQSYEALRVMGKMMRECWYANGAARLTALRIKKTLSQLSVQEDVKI

Series 1 — observed: peptide-MHC binding; form: peptide; tested at: concentration not given
Target: HLA class I histocompatibility antigen, B alpha chain, allele B*18:01 (Homo sapiens, UniProt P01889)
| Sequence | binding |
| --- | --- |
| FESVAWSA | active |
| FEFTSFFY | active |
| WEAWWTEY | active |

Series 2 — observed: enzyme activity; mode: inhibitor; tested at: 0.5 µM
Compound: N/C(=N\[N+](=O)[O-])N/N=C\c1ccc(-c2cccc([N+](=O)[O-])c2)o1
| target | test | how to read | remaining activity [%] |
| --- | --- | --- | --- |
| ACVR1B (Homo sapiens, UniProt P36896) | – | reference: control | 101 |
| MAP2K2 (Homo sapiens, UniProt P36507) | – | reference: control | 78.2 |
| ABL2 (Homo sapiens, UniProt P42684) | – | reference: control | 95.7 |
| MST1R (Homo sapiens, UniProt Q04912) | – | reference: control | 97.6 |
| FRK (Homo sapiens, UniProt P42685) | – | reference: control | 90.1 |
| MAPKAPK2 (Homo sapiens, UniProt P49137) | – | reference: control | 96.3 |
| CSNK1G3 (Homo sapiens, UniProt Q9Y6M4) | – | reference: control | 86.2 |
| FGFR1 (Homo sapiens, UniProt P11362) | – | reference: control | 97.6 |
| ULK2 (Homo sapiens, UniProt Q8IYT8) | – | reference: control | 87.3 |
| TEK (Homo sapiens, UniProt Q02763) | – | reference: control | 99.6 |
| FGFR3 (Homo sapiens, UniProt P22607) | – | reference: control | 99.6 |
| WEE1 (Homo sapiens, UniProt P30291) | – | reference: control | 100 |
| DYRK1B (Homo sapiens, UniProt Q9Y463) | radiometric | – | 104 |
| EPHA3 (Homo sapiens, UniProt P29320) | – | reference: control | 99.3 |

Series 3 — target: CCNB3, cyclin fold, Cln2 fusion (human); method: yeast growth competition, sequencing; matrix: yeast; setting: strong parent motif; reference: not given; reading: higher = stronger binding
Starting sequence: viral docking peptide; YKVKRRLVFGADD; partner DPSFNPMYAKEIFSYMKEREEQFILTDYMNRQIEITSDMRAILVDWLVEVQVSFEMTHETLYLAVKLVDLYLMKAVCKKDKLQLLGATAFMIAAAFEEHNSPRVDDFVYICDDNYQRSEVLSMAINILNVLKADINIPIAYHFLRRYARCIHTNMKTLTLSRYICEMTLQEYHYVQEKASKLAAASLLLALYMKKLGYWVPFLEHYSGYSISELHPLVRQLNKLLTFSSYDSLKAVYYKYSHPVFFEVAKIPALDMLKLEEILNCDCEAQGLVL
| Substitution | normalised enrichment score |
| --- | --- |
| YKVKWRLVFGADD [R5W] | 0.289 |
| YTVKRRLVFGADD [K2T] | 2.46 |
| YKVKRRLVWGADD [F9W] | 0.796 |
| YKVKRRLVFGAND [D12N] | 1.92 |
| YKVKRRNVFGADD [L7N] | 0.389 |
| YKVKRRLVFYADD [G10Y] | 1.16 |
| YKVKRNLVFGADD [R6N] | 0.44 |
| YKVKRRWVFGADD [L7W] | 0.542 |

Other studies, line by line
| Molecule | target or system | test | test system | conditions | how to read | measurement | result |
| --- | --- | --- | --- | --- | --- | --- | --- |
| C=CCCC(CN1C[C@H]2CC=CC[C@H]2C1)Oc1ncc(Cl)cn1 (stereo partly shown) | – | – | mouse, microsomes or S9 | 2 µM, 0.5 h | – | remaining compound | 0.0378% |
| CCTAACTACTATAGGCATGTGCGATAGCTTCGTACAGTCTTGATTCGCTTGACGCTGCTG | Centromere-binding protein 1, full length, N-terminal tag (CBF1, Saccharomyces cerevisiae, UniProt P17106, residues 1-351) | protein-binding microarray | double-stranded DNA, one strand shown, in vitro | 0.8 µM, whole 60-bp probe, no competitor | higher = stronger binding | fluorescence intensity | 615 a.u. |
| CC(C)N(CCC(C(N)=O)(c1ccccc1)c1ccccn1)C(C)C (stereo not shown) | CAMK2A (Homo sapiens, UniProt Q9UQM7) | enzyme activity, inhibitor | – | 10 µM | – | inhibition | -8% |
| NC1=NC(=O)C(c2ccccc2)O1 (stereo not shown) | Sarcocystis neurona | parasite growth | – | 10 µM, 96 h, secondary screen | – | inhibition | -25.4% |
| c1ccc2c(c1)CNC(c1ccc3c(c1)OCO3)c1cccn1-2 (stereo not shown) | – | – | mouse, microsomes or S9 | 2 µM, 0.5 h | – | remaining compound | 0.258% |
| CNC(=O)Nc1ccc2c(c1)[C@@]1(CC2)OC(=O)N(CC(=O)N(Cc2ccc(F)cc2)[C@@H](C)C(F)(F)F)C1=O | CRK2 (Plasmodium falciparum, UniProt P61075) | cell-free assay, competition with immobilised ligand | – | 1 µM | – | remaining binding | 95% |

Excerpt of the above (series 2):
| target | test | how to read | remaining activity [%] |
| --- | --- | --- | --- |
| TEK (Homo sapiens, UniProt Q02763) | – | reference: control | 99.6 |
| FGFR3 (Homo sapiens, UniProt P22607) | – | reference: control | 99.6 |
